Measurements of several laboratories.
Compare with care: the assays were run in different laboratories. Numbers after ± are the reported error.
HTR1E: 5-hydroxytryptamine receptor 1E (HTR1E, Homo sapiens, UniProt P28566)
Chain of UniProt P28566 (whole entry, looked up): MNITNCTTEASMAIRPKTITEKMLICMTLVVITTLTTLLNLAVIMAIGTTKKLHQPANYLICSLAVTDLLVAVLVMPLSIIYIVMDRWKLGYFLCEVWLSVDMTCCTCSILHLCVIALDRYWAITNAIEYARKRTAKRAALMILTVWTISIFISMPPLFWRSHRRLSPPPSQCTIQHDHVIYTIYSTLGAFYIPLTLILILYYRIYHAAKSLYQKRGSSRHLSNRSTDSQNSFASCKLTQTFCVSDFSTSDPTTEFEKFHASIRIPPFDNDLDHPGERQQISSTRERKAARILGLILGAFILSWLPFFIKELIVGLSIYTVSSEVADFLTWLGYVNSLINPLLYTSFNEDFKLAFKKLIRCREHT
Luciferin 4-monooxygenase: Luciferin 4-monooxygenase (Photinus pyralis, UniProt P08659)
Chain of UniProt P08659 (whole entry, looked up): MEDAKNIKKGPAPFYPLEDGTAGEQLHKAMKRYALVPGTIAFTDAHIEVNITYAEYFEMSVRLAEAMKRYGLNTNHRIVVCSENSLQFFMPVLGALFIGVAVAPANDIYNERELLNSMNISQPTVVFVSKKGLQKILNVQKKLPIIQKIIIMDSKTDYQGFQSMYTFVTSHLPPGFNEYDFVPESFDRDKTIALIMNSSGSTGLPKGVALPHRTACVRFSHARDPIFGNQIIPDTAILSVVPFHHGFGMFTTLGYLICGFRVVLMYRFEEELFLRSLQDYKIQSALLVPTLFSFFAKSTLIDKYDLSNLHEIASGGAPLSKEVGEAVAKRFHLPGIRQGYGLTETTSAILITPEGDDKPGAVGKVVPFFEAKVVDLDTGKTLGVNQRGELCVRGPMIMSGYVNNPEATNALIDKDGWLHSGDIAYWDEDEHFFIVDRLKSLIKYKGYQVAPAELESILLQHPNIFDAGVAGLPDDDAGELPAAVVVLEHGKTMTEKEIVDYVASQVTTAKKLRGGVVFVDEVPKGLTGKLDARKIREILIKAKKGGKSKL
Chain of UniProt Q16566 (whole entry, looked up): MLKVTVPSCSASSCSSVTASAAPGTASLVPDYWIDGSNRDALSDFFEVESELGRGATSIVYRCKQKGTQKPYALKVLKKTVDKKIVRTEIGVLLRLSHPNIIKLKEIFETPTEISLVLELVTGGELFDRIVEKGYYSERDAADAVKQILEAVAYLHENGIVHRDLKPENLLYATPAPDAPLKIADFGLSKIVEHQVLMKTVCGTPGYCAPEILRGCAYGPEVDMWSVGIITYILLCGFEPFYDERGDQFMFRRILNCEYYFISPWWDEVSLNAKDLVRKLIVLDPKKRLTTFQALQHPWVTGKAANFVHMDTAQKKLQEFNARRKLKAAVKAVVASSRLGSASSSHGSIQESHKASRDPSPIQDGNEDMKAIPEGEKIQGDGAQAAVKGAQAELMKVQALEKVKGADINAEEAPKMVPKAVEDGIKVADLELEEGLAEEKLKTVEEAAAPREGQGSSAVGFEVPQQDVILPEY
Chain of UniProt P16257 (whole entry, looked up): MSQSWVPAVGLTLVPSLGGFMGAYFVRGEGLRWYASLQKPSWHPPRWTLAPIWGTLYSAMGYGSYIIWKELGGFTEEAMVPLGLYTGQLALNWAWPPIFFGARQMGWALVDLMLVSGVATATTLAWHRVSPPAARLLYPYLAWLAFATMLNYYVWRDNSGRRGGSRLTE
Chain of UniProt P25025 (whole entry, looked up): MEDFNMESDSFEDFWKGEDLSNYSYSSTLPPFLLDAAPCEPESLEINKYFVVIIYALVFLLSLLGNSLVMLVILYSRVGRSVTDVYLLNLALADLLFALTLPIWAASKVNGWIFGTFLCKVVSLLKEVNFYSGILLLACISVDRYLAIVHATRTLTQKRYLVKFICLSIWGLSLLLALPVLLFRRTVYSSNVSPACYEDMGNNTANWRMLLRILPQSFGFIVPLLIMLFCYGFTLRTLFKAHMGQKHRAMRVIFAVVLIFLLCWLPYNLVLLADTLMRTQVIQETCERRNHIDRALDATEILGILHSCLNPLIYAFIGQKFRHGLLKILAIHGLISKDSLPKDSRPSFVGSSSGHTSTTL
Chain of UniProt P50897 (whole entry, looked up): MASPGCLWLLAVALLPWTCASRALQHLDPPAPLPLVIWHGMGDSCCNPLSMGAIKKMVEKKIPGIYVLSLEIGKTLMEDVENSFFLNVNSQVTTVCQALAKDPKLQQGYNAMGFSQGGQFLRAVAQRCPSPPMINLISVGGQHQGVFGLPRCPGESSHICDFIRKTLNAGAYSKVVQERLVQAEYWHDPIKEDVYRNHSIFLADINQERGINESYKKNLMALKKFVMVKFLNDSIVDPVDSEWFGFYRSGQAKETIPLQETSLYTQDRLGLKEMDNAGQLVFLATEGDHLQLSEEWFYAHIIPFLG
Chain of UniProt P21728 (whole entry, looked up): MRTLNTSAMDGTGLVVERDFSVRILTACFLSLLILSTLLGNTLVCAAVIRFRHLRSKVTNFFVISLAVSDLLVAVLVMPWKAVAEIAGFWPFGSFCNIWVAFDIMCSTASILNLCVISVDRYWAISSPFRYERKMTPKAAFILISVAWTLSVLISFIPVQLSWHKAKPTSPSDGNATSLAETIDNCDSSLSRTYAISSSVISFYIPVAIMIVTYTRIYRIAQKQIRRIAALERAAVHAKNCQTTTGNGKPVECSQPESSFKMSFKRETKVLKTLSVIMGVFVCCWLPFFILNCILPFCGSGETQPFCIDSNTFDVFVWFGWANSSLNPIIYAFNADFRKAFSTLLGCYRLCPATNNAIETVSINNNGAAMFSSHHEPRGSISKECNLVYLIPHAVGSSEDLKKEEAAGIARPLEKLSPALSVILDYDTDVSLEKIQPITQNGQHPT
Chain of UniProt O95747 (whole entry, looked up): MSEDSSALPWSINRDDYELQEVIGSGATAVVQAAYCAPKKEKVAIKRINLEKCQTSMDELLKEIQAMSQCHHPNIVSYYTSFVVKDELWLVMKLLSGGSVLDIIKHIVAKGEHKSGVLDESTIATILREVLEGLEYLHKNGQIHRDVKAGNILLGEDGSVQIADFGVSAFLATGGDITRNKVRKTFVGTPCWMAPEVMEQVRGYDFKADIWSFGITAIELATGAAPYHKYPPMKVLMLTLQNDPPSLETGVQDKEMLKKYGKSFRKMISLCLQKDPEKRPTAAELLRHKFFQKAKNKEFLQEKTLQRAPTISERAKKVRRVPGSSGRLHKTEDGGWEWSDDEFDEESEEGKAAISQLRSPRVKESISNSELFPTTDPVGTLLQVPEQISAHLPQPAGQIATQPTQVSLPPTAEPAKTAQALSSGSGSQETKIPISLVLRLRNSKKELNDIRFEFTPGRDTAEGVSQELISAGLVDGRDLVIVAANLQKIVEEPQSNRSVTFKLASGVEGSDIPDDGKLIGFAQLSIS
Chain of UniProt P30411 (whole entry, looked up): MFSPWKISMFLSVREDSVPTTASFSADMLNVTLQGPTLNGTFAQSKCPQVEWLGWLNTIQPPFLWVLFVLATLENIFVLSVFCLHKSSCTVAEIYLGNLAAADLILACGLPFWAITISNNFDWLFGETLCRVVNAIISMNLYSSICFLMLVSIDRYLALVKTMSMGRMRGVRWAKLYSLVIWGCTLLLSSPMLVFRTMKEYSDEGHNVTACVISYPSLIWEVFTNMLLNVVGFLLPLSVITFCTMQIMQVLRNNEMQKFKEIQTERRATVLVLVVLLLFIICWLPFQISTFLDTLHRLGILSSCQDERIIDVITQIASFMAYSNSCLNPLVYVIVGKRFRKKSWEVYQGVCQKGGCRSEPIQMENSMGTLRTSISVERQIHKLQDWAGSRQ

With `CNc1cccc2cc(C(=O)Nc3ccc(C(=O)O)cc3)c(=O)[nH]c12` the inhibition was 8.5% (AMPK; kinase activity, inhibitor; 10 µM).
`COc1c(O)c(C)cc2c1C(=O)c1c(cc(O)c(O)c1O)C2=O` has a viability of 88.6 ± 3.22% (HK-2 co-cultured with HepaRG; MTT; 16.67 µM, 24 h; baseline: untreated control).
For `CCN(O)N=Nc1ccc(S(=O)(=O)Nc2onc(C)c2C)cc1`, the inhibition was 15 ± 0.013% (α-glucosidase, rat intestine; enzyme activity; 60 µg/mL, together with: 4-nitrophenyl α-D-glucopyranoside).
`CN(C(=O)n1cnc(-c2ccc[n+]([O-])c2)c1)C1CCCCC1` has an inhibition of 20.6% (B2 bradykinin receptor (BDKRB2, Homo sapiens, UniProt P30411); 10 µM).
The inhibition of `O=C(NO)c1ccc(CN2CCCCc3ccccc32)c(F)c1` is reported as -30.8% (Translocator protein (Tspo, Rattus norvegicus, UniProt P16257); radioligand binding, PDSP radioligand binding; 10 µM).
The inhibition of `CN1CCN(CCCCN2C(=O)CN(/N=C/c3ccc(-c4ccc(Cl)cc4)o3)C2=O)CC1` is reported as 4.6% (THP-1; pyroptotic LDH release; 2 µM, 40 min, together with: LPS then nigericin).
With `Cc1ccc(N(O)N=Nc2ccc(S(=O)(=O)Nc3onc(C)c3C)cc2)cc1` the inhibition was 2.5 ± 0.041% (α-glucosidase, rat intestine; enzyme activity; 20 µg/mL, together with: 4-nitrophenyl α-D-glucopyranoside).
With `CC[C@@H]1[C@H](F)C(=O)N[C@@H]1COc1nccc2cc(C(N)=O)c(OC)cc12` the inhibition was -4.7% (Calcium/calmodulin-dependent protein kinase type IV (CAMK4, Homo sapiens, UniProt Q16566); ATP-site probe binding, ActivX profiling; THP-1 cell lysate; 0.2 mM, Lys2 site).
`COc1ccc(F)cc1C(=O)NCc1ccc(-c2nn([C@@H](C)C(F)(F)F)c(N)c2C(N)=O)cc1` gave an inhibition of 13.7% (Serine/threonine-protein kinase OSR1 (OXSR1, Homo sapiens, UniProt O95747); target engagement, competitive chemoproteomics; human PBMCs; 1 µM).
`CN(O)N=Nc1ccc(S(=O)(=O)Nc2nccs2)cc1` has an inhibition of 15 ± 1.38% (α-glucosidase, rat intestine; enzyme activity; 60 µg/mL, together with: 4-nitrophenyl α-D-glucopyranoside).
The inhibition of `O=C(CN1CCO[C@@H](COc2cccnc2)C1)N1CCc2ccccc21` is reported as -5% (HTR1E; radioligand binding; concentration not given, together with: [3H]5-HT).
For `CN1CCN(c2cc(-c3ccncc3)c(-c3ccc4ccccc4c3)nn2)CC1`, the inhibition was -0.7% (C-X-C chemokine receptor type 2 (CXCR2, Homo sapiens, UniProt P25025); antagonist, FLIPR; 10 µM).
The inhibition of `c1ccc(OC[C@@H]2CN(CCN3CCc4ccccc43)CCO2)cc1` is reported as 83% (D(1A) dopamine receptor (DRD1, Homo sapiens, UniProt P21728); radioligand binding; concentration not given, together with: [3H]SCH23390).
`Cc1nc(C2CCN(C(=O)c3cccc(-c4ncn[nH]4)c3)CC2)cc(=O)[nH]1` has an inhibition of 7.46% (Luciferin 4-monooxygenase; luciferase luminescence, inhibitor; cell-free; 50 µM, counter-screen).
With `COc1c(O)c(C)cc2c1C(=O)c1c(O)cccc1C2=O` the viability was 101 ± 11.2% (HK-2 co-cultured with HepaRG; MTT; 16.67 µM, 24 h; baseline: untreated control).
With `Cn1cc([C@@H]2C[C@H]3CN(Cc4cccc(Cl)c4)C(=O)[C@]34CCCN24)cn1` the inhibition was -12.1% (Luciferin 4-monooxygenase; luciferase luminescence, inhibitor; cell-free; 50 µM, counter-screen).
The inhibition of `CN1CC(Oc2cnc(C#N)cc2-c2ccn3nc(NC(=O)C4CC4)cc3c2)C1` is reported as 6% (Transient receptor potential cation channel subfamily M member 7 (TRPM7, Homo sapiens, UniProt Q96QT4); kinase activity, inhibitor; 1 µM, together with: ATP 45 µM).
With `Cc1cc(NS(=O)(=O)c2ccc(N=NN(O)c3ccccc3)cc2)no1` the inhibition was 47.5 ± 1.54% (α-glucosidase, rat intestine; enzyme activity; 240 µg/mL, together with: 4-nitrophenyl α-D-glucopyranoside).
`CCS(=O)(=O)c1nc(S(=O)(=O)c2ccccc2Cl)c(N2CCN(C)C(=O)[C@H]2C)s1` has an inhibition of 10.7% (HTR1E; 10 µM).
For `O=S(=O)(Nc1nccs1)c1ccc(N=NN(O)c2ccccc2)cc1`, the inhibition was 12.5 ± 0.04% (α-glucosidase, rat intestine; enzyme activity; 60 µg/mL, together with: 4-nitrophenyl α-D-glucopyranoside).
For `O=[N+]([O-])c1ccc(O[C@@H]2O[C@H](CO[C@@H]3O[C@H](CO)[C@H](O)[C@H](O)[C@H]3O)[C@H](O)[C@H](O)[C@H]2O)cc1`, the inhibition was 19.4 ± 1.6% (Adhesin FmlH, lectin domain (Escherichia coli, UniProt Q1RBS0); binding to desialylated mucin, ELISA competition; UPEC UTI89; 100 µM).
`CC(C)(C)NC(=O)[C@H]1CC[C@H]2[C@@H]3CC[C@H]4NC(=O)C=C[C@]4(C)[C@H]3CC[C@]12C` gave an inhibition of -21.9% (THP-1; pyroptotic LDH release; 2 µM, 40 min, together with: LPS then nigericin).
`O=S(=O)(O)c1cc(N=C=S)ccc1/C=C/c1ccc(N=C=S)cc1S(=O)(=O)O` has an inhibition of 43.3% (Luciferin 4-monooxygenase; luciferase luminescence, inhibitor; cell-free; 50 µM, counter-screen).
With `COc1cc(/C=C/C(=O)O)cc(OC)c1OC` the inhibition was 63.6% (Palmitoyl-protein thioesterase 1 (Homo sapiens, UniProt P50897); Spectrum Collection screen; concentration not given, together with: substrate 20 µM).

Some of these lines once more:
With `COc1cc(/C=C/C(=O)O)cc(OC)c1OC` the inhibition was 63.6% (Palmitoyl-protein thioesterase 1 (Homo sapiens, UniProt P50897); Spectrum Collection screen; concentration not given, together with: substrate 20 µM).
`CN(C(=O)n1cnc(-c2ccc[n+]([O-])c2)c1)C1CCCCC1` has an inhibition of 20.6% (B2 bradykinin receptor (BDKRB2, Homo sapiens, UniProt P30411); 10 µM).
